Measurements from different studies.
A part holds a random share of what one study measured. Positions count from the first letter of the parent shown.

Block 1 — method: Sort-seq; refers to: YFP reporter; matrix: E. coli; setting: PhoQ-PhoP variant library; with: 10 µM Mg2+; reference: high Mg2+ state; reading: higher = stronger signaling
Molecule: PhoQ, residues 284 288 289 292 302 303 NSMLDC
| target | fold induction |
| --- | --- |
| PhoP, residues 12 14 15 18 19 GMGLL (Escherichia coli, UniProt P23836) | 6.06 |
| PhoP, residues 12 14 15 18 19 QQAYL (Escherichia coli, UniProt P23836) | 13.9 |
| PhoP, residues 12 14 15 18 19 LFHKL (Escherichia coli, UniProt P23836) | 2.97 |

Block 2 — method: RNA Bind-n-Seq; molecule type: RNA; matrix: in vitro; concentration: 365 nM; reference: no-protein control; reading: higher = stronger binding
Target: RNA binding protein fox-1 homolog 2, RRM domain, GST-SBP tag (RBFOX2, Homo sapiens, UniProt O43251-10, residues 100-194)
Setting: natural RNA segment, single round, ends assumed
All sequences stand within: GGGAGUUCUACAGUCCGACGAUC … UGGAAUUCUCGGGUGCCAA
Residues (chain): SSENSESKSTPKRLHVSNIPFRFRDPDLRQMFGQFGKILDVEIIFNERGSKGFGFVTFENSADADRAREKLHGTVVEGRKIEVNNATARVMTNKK
| Oligonucleotide | RBNS enrichment (R) |
| --- | --- |
| CUGGGGCAGGGGUCAGCCACUGUCCCAAUCAGUCCUUUCUGAAGGAGAAACCCAUUCCACAUUAACAAAUUUAUUACAGUACAGGGAACAUGGAAUAAAGGAAAGUUUAC | 0.377 |
| CUUAAACUCUUGUCAGUCUGGGCUCAGGGUUCCCAGAGCUCAUUCCCCAGGAAUCUCUAAGACCAGGGCUGGGGCAGUGUCUGUCACUGGCUUGUUUGUUCCCUACCAAU | 0.198 |
| UUGCUGUUGAUGCCAUAUGUUUAGACUGCUGUUCUGACCCUAUUUAUCUUUCUCUCUGCCAUUUGGAACUUUAUUCCCUAACCCAGGUUUUGCUGCUGUGAAACAGCGUU | 0.975 |
| AGUUCCCCCUUCCUGAGAGACUCUGUCUGGGCCAGAAGCCAUUCAUUGAAAGGUUGCGAUGGCAACCAGCCUCCAGCCAUGCAGGCCUGUUUUUAGAGAGAUGGGUCUCU | 0.252 |
| CCCUUACCCAUCUUGCUUCCAAGACCAUUUGUAGUGAGCGAGUGGAUGCUGUGCUACGUGUGAAAUCUGUCUUUGCGGGGCCUGUCUCAGUGAUUCGCUUUUGGUAUUUG | 0.568 |
| UCCCAGCUCGCCCAUGUAUGUCGACUGAUACCGCUGCUACAUCAGACUCUAGAAAAAAGGGCUGAGGGGAAGCAAGACGUAAAGAGUUUUCAUCCUGUAUCACAGUGUUU | 0.657 |
| UUUUUAUUUUUGAAGUACUCUGACACCUCCACCCUCUACUUUAUUAGAAUUGGAAGGCAAAUUUUUGUCCAAAAACCUACAGACAAGUACUUUGAGAGAAUUUCCAAUAU | 0.514 |
| AAAAACAUUAUUGGCAUCUGGAGAUUAUUGCAACGUUCUCCUAACCUGUCACAGAAAGCAGUUGCUUGAAAAUUAGCCACAAAUUGGUACAAUGUUAUUUCAAUCUUAUA | 0.785 |

Block 3 — method: protein-binding microarray; molecule type: double-stranded DNA, one strand shown; matrix: in vitro; concentration: 2540 nM top; setting: 60-bp whole probe; with: salmon DNA 0.4 mg/ml; reference: random background probes; reading: higher = stronger binding; all sequences stand within: GCCTAGCAC … GTCTTGATTCGCTTGACGCTGCTG
Target: Interferon regulatory factor 3, full length, phosphomimetic (IRF3, Homo sapiens, UniProt Q14653, residues 1-427, S386D/S396D/S398D/S402D/T404D/S405D)
Construct (chain): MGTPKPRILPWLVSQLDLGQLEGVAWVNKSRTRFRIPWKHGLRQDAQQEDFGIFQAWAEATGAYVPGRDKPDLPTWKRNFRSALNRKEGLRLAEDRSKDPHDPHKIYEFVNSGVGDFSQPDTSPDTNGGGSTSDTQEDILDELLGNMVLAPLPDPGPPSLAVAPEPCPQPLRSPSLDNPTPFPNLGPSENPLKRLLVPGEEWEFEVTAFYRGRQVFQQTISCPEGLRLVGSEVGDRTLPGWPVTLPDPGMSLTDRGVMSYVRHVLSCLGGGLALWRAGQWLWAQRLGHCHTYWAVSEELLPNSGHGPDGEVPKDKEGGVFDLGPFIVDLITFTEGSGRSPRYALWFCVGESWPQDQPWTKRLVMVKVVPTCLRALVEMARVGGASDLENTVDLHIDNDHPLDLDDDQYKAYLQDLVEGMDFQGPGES
| Oligonucleotide | fitted relative affinity [z-score] |
| --- | --- |
| GACGAACTGAGACCGGAGACGTGCTAG | -0.21 |
| GACGATTTCGGGCCTGGAGACGTGCTA | 0.729 |
| TACGATTCCAGTTTCGAGACGTGCTAG | 3.01 |
| TTAGGACTGCGTTTCGGTTAGTGCTAG | 2.76 |
| TCAAATCTCTTTCCTTAACTGTGCTAG | 1.77 |
| TTAGGTTTCGTTTTCCTTTAGTGCTAG | 9.74 |
| GACGGTATCGGGTATCGGGTCGTGCTA | 2.09 |
| TTCGGACTGCTTATCCTTTAGTGCTAG | 0.0207 |
| GACGGAGTGGGTATCGGGACGTGCTAG | -0.256 |
| TTAGGTATCCTTTTCCTTCAGTGCTAG | 8.29 |
| GAAGGTTCCGGTTTCGGGACGTGCTAG | 6.46 |
| GACGGACTGGATCTCGGGACGTGCTAG | -0.35 |
| GACGATGTCGGGTATCGAGACGTGCTA | -0.245 |
| TCATATTTAAGAACTATGACTGTGCTA | 0.577 |
| GACGGTTTGCTTCTCCTGACGTGCTAG | 1.39 |
| TCAGTTCTGATCCTTCCCACTGTGCTA | 1.56 |
| GACGGTATCCTCCTCCTGACGTGCTAG | 2.36 |
| TTGCTTGTGTTTATTGTGACGTGCTAG | -0.387 |
| TGGGCTCTAGGTTCTCTGAAGGTGCTA | -1.17 |

Block 4 — target: CCNA2, cyclin fold, Cln2 fusion (human); method: yeast growth competition, sequencing; matrix: yeast; setting: strong parent motif; reference: not given; reading: higher = stronger binding
Starting sequence: RBL1 docking peptide (human); GSAKRRLFGEDPP
| Variant | normalised enrichment score |
| --- | --- |
| GSAKRRLFGKDPP [E10K] | 5.23 |
| GSAERRLFGEDPP [K4E] | -0.244 |
| GSAKRRSFGEDPP [L7S] | 0.0264 |
| GSAGRRLFGEDPP [K4G] | 0.91 |
| GSAKRQLFGEDPP [R6Q] | 4.28 |
| GSMKRRLFGEDPP [A3M] | 1.63 |
| GSAKRRLFKEDPP [G9K] | 6.05 |
| GWAKRRLFGEDPP [S2W] | 4.17 |
| GPAKRRLFGEDPP [S2P] | 4.92 |
| GSAKRRLFIEDPP [G9I] | 6.81 |
| GSAKRRNFGEDPP [L7N] | 1.22 |
| GSAKRRCFGEDPP [L7C] | 0.604 |
| GSNKRRLFGEDPP [A3N] | 0.694 |
| GSAKRRLFGWDPP [E10W] | 4.83 |
| GSAKRRLFNEDPP [G9N] | 7.22 |
| GSAKRRRFGEDPP [L7R] | 0.54 |
| GSAKRRLFGRDPP [E10R] | 5.28 |
| GSSKRRLFGEDPP [A3S] | 4.38 |
| GSAKRRWFGEDPP [L7W] | 1.21 |
| GSAKRRLFGEWPP [D11W] | 5.03 |
| GSAKRRLFGEDAP [P12A] | 5.92 |
| GSAKRRLAGEDPP [F8A] | 0.384 |
| GSAKRRLFGEDFP [P12F] | 5.57 |
